Measured values from different studies.
± marks the error that the study gave.
Chain of UniProt P50613 (whole entry, looked up): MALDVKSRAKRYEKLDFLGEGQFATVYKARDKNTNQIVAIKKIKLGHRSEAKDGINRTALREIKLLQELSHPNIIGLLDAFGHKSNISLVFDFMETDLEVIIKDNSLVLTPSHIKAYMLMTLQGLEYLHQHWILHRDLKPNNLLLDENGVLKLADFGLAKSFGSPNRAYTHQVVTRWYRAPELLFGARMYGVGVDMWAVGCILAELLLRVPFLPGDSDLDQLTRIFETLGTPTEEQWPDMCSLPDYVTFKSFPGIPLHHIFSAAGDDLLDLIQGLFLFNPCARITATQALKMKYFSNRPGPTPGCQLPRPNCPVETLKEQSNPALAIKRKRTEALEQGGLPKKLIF

COc1ccc(-c2c(-c3ccc(C#N)c(F)c3)nc(N3CCC(N)CC3)n(C)c2=O)cc1F  treatment-related adverse event incidence (measured: Constipation; human patients; oral, dose not given, grade 3 to 4, dose escalation, NG): 0%
CNC(=O)c1c(C)oc2cc(Oc3ccnc4cc(OCCN5CCOCC5)ccc34)ccc12  urinary excretion unchanged (patients, urine; dose not given, days 1 and 29; relative to: dose): < 1%
C/C(=N\C#N)N(C)Cc1ccc(Cl)nc1  recovery (soil; 0 days, nominal 1.1): 59%
CC(C)(O)c1cc(Nc2cc(Oc3cn(C4CC4)nc3C3CCOCC3)ccn2)ccn1  treatment-emergent adverse events (measured: Vomiting; Japanese patients with advanced cancer; oral, dose not given, any grade): 0%
C[C@]1(O)C[C@@](N)(c2ccc(-c3nc4n(c3-c3ccccc3)COc3ccncc3-4)cc2)C1  patients with Fatigue TEAE (human, advanced or metastatic solid tumours; 28 mg intermittent, phase I dose escalation): 66.7%
C[C@]1(CO)Cc2ncn(-c3ccc(C#N)c(Cl)c3)c2C(=O)O1  subjects with drug-related TEAEs (investigator-assessed; human; 40 mg multiple doses, fasted): 11.1%
C[C@@H]1NC(=O)[C@H](CCCCNC(=O)CO/N=C/C(=O)NCCCC[C@@H]2NC(=O)[C@@H](Cc3ccccc3)NC(=O)[C@H](CC(=O)O)NC(=O)CNC(=O)[C@H](CCCNC(=N)N)NC2=O)NC(=O)CNC(=O)[C@@H]2CCCN2C(=O)[C@H](CCCCNC(=O)CO/N=C/C(=O)NCCCC[C@@H]2NC(=O)[C@@H](Cc3ccccc3)NC(=O)[C@H](CC(=O)O)NC(=O)CNC(=O)[C@H](CCCNC(=N)N)NC2=O)NC(=O)[C@H](CCCCNC(=O)CN2CCCNCCNCCCNCC2)NC(=O)[C@H](CCCCNC(=O)CO/N=C/C(=O)NCCCC[C@@H]2NC(=O)[C@@H](Cc3ccccc3)NC(=O)[C@H](CC(=O)O)NC(=O)CNC(=O)[C@H](CCCNC(=N)N)NC2=O)NC(=O)CNC(=O)[C@@H]2CCCN2C(=O)[C@H](CCCCNC(=O)CO/N=C/C(=O)NCCCC[C@@H]2NC(=O)[C@@H](Cc3ccccc3)NC(=O)[C@H](CC(=O)O)NC(=O)CNC(=O)[C@H](CCCNC(=N)N)NC2=O)NC1=O [copper-64 labelled]  tissue uptake (normal mice, blood; intravenous, 0.74 MBq, 24 h post-injection): 0.06 ± 0.01 %ID/g
[O-][S+]1CCc2nc(N3CCC(c4ncc(Cl)cn4)CC3)nc(NC3(CO)CCC3)c21 (centres unmarked)  subjects with adverse events (phase I trial, measured: gastrointestinal disorders; idiopathic pulmonary fibrosis patients; 18 mg twice daily): 80%
Clc1ccc(-c2ccccc2)cc1  serum triglycerides (rat Sprague-Dawley female, serum; inhalation, 23 µg/rat, 4 h): 59 ± 40 mg/dL
C[C@H]1CN(c2n[nH]c3nc(N[C@H]4CC[C@H](NS(=O)(=O)CCC(F)(F)F)CC4)ncc23)CCO1  Hill slope (CDK7 (Homo sapiens, UniProt P50613); competitor, Kinobeads competition; HEK293, K562, placenta extract): 1.11
CCN1[C@@H](C(=O)NC23CCC(C(=O)O)(CC2)CC3)[C@H](c2cccc(Cl)c2F)[C@]2(C(=O)Nc3cc(Cl)ccc32)C12CCCCC2  any-grade adverse event incidence (patients with advanced solid tumours; oral, 150 mg): 100%
COc1ccc(C[C@@H]2NC(=O)[C@H]([C@@H](C)O)NC(=O)[C@@H]3[C@@H]4CCN3C(=O)[C@@H]3Cc5cn(c6ccc(F)cc56)CCCCCCN(Cc5ccc(cc5)CCNC(=O)[C@]5(C)CCCN5C2=O)C(=O)CCC(=O)N[C@@H](C)C(=O)N[C@H](CNC(=O)CCCCC[N+](C)(C)C)C(=O)N[C@@H](Cc2cccc(c2)CNC(=O)CO4)C(=O)N3)cc1  participants with adverse event (measured: nasal congestion; human; dose not given): 6.5%
N[C@@H]1c2ccccc2OC12CCN(c1cnc3c(N4CCCc5ncccc54)n[nH]c3n1)CC2  TEAE leading to withdrawal (advanced metastatic solid tumour patients; oral, 75 mg once daily): 28.6%
COc1ncccc1-c1cnn2ccc(N3CCN(C(=O)OC(C)C)CC3)nc12  free drug concentration (mouse, SNL model, plasma; oral, 60 mg/kg, 30 min): 340 nM
COc1cc2c(Oc3ccc4[nH]c(C)cc4c3F)ccnc2cc1OCC1(N)CC1  Hyperuricaemia incidence (paediatric refractory sarcoma patients; 10 mg): 0%
CC(=O)c1c(C)c2cnc(Nc3ccc(C4CCN(CCS(C)(=O)=O)CC4)cn3)nc2n(C2CCCC2)c1=O  MRT (human, plasma; oral, 50 mg twice daily, day 1, single dose, with: letrozole): 4.52 h
COc1c(N2CC3CCCN(C(=O)OCc4ccc([N+](=O)[O-])cc4)C3C2)c(F)cc2c(=O)c(C(=O)O)cn(C3CC3)c12 (centres unmarked)  reduction potential (cyclic voltammetry; anhydrous acetonitrile; concentration not given; relative to: Ag/AgCl): -1.21 V
C[C@@H]1OC(=O)NN=C1c1ccc(-c2ccc(F)cc2)c(C(F)(F)F)c1  patients with adverse event (phase I trial, measured: Dyspnoea all grades; human patients; 5 mg loading then 0.25 mg daily): 0%
CCc1ccc(CC/C=C/c2ccc3c(c2)C(=O)CC3)cc1  Fibrinogen (Sprague-Dawley rat, female; oral, 450 mg/kg/day, 14 days): 2.8 g/L
COC[C@@H](CC(C)C)NC(=O)c1ccc(C)c(C)c1  micronucleated PCE per 1000 PCE (Hsd:ICR (CD-1) mouse, male, bone marrow; oral, 2000 mg/kg, 24 h): 0.1
O=S(=O)(Nc1ccccc1)c1ccc(NC(=S)Nc2ccccc2)cc1  haemoglobin (female mouse, blood; oral, 5 mg/kg daily, 14 days): 14.3 g/dL
CC(C)[C@@H]1NC(=O)CNC(=O)[C@H](CC(N)=O)NC(=O)[C@H](CCCNC(=N)N)NC(=O)[C@H](Cc2ccc(O)cc2)NC(=O)[C@H](C(C)C)NC(=O)[C@@H](NC(=O)[C@@H](NC(=O)[C@H](CC(N)=O)NC(=O)[C@H](Cc2c[nH]c3ccccc23)NC(=O)[C@H](C)NC(=O)[C@H](Cc2ccccc2)NC(=O)CN)C(C)C)CSSC[C@@H](C(=O)N[C@@H](Cc2cnc[nH]2)C(=O)N[C@@H](CCCNC(=N)N)C(=O)N[C@@H](CCCNC(=N)N)C(=O)N[C@@H](C)C(=O)N[C@@H](CC(N)=O)C(N)=O)NC(=O)[C@H](C(C)C)NC(=O)[C@H](CCCNC(=N)N)NC1=O  basophils (ICR mouse, blood; intramammary, 5 mg/kg, day 5, 3 d dosing): 1.43 ± 0.14%
CO[C@H]1C[C@@H]2CC[C@@H](C)[C@@](O)(O2)C(=O)C(=O)N2CCCC[C@H]2C(=O)O[C@H]([C@H](C)C[C@@H]2CC[C@@H](OC(=O)NCCOCCOCCOCCOCCOCCOCCOCCOCCC(=O)N3CCc4cc(Cn5nc(-c6ccc7oc(N)nc7c6)c6c(N)ncnc65)ccc4C3)[C@H](OC)C2)C[C@@H](O)[C@H](C)/C=C(\C)[C@@H](O)[C@@H](OC)C(=O)[C@H](C)C[C@H](C)/C=C/C=C/C=C/1C  Mucositis AE leading to dose reduction (patients with advanced solid tumours; intravenous, dose not given, grade ≥3): 0%
Cn1ncc(-c2nc(N[C@H]3CC[C@H](N)CC3)ncc2Cl)c1CC1CC1  alanine aminotransferase increase incidence (phase I dose escalation; human patients; dose not given, treatment-related grade 3 or higher): 3.2%
CCN(CC)CCNC(=O)c1[nH]c2ccccc2c1Sc1ccc(Cl)cc1  maximum response (Vero-E6; CellTiter-Glo ATP; 72 h, second round 5-point; relative to: DMSO 0%, hyamine -100%, more negative, more toxic): -3.17%
Cn1cc(-c2nc(N[C@@H]3CCCC[C@@H]3N)c(F)c3c2C(=O)NC3)cn1  hemorrhagic adverse events (measured: Epistaxis; patients with relapsed or refractory AML; oral, 80 mg twice daily): 33%
Clc1ccc2nc(N3CCC(NCCc4cccnc4)CC3)sc2c1  cytotoxicity efficacy (Vero-E6; CellTiter-Glo ATP; concentration not given, 72 h, retest 8-point duplicates; relative to: DMSO 0%, hyamine -100%, more negative, more toxic): -18.1%
CC(C)N(CCc1c[nH]c2cccc(OC(=O)CCCC(=O)O)c12)C(C)C.Cl  AUC(0-inf) (male beagle dog, plasma; intravenous, 1 mg/kg): 568 ng·h/mL
Cc1cccc(Cn2nc(C3CC3)c3c(NC(=O)c4cnc5cc(OCCN6CCN(C)CC6)ccn45)cccc32)n1  adverse events incidence (measured: Vomiting; human advanced solid tumours; oral, 400 mg, all-causality): 14.3%
